Published values from different studies.
Numbered parts are unrelated; each lists some results of a single study.

Set 1 — technique: protein-binding microarray; molecule type: double-stranded DNA, one strand shown; sample: in vitro; concentration: 250 nM; notes: 60-bp whole probe; with: salmon DNA 0.4 mg/ml; relative to: random background probes; direction: higher = stronger binding; constant ends, left off below: GCCTAGCAC … GTCTTGATTCGCTTGACGCTGCTG
Target: Interferon regulatory factor 7, full length, phosphomimetic (IRF7, Homo sapiens, UniProt Q92985, residues 1-503, S101K/S471D/S472D/S475D/S476D/S477D/S483D/S484D/S487D)
Chain of UniProt Q92985 (whole entry, unmodified, looked up): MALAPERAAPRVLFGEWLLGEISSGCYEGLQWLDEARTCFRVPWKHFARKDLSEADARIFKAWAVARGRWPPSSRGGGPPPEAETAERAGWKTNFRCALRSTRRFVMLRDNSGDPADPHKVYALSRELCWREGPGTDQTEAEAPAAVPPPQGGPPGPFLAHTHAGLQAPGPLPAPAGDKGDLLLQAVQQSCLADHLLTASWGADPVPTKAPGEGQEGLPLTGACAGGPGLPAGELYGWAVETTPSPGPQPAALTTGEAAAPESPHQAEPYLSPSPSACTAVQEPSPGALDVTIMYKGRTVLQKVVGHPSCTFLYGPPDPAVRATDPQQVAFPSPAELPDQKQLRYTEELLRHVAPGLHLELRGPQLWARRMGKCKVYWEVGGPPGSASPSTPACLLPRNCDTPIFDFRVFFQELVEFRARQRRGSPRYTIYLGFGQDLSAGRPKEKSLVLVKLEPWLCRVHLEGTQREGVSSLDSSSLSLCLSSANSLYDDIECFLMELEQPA
Strand	log fluorescence [z-score]
TTAGCTCTCAGTTTCGATTAGTGCTAG	7.12
TCAGTCATCCATCTGAAACTGTGCTAG	-0.217
TTAGATATCCTTCTCCTTTAGTGCTAG	0.443
TTAGATCTCCTACTGCTTTAGTGCTAG	0.0826
TCAAGCTTGGGTCTGTGACTGTGCTAG	-0.904
TTAGATCTCAGACTGGATGAGTGCTAG	0.144
GACGGTTCAGGTTTCGGGACGTGCTAG	2.63
TAAGATTTCGGGTATCGATTAGTGCTA	1.93
GACAAACTGAGACTGGAGACGTGCTAG	0.0538
TTAGGACTGGGACTGTGTTAGTGCTAG	-0.256
GACGAACTGGGGTATCTAGACGTGCTA	-1.07
GGGCATTTGGTTAGCGTATAGTGCTAG	-0.697
GACGATATCGGGTTTTGAGACGTGCTA	-0.264
TCAACGAATTAGAAAGAGCAGTGCTAG	0.247
CACGGTCTCGGTATCGGGACGTGCTAG	2.05
TTAGGACTTGACTTTCGGTTAGTGCTA	1.45
CTTGTTCTTAGCTTGGGTCTGTGCTAG	0.791

Set 2 — technique: RNA Bind-n-Seq; molecule type: RNA; sample: in vitro; concentration: 365 nM; relative to: no-protein control; direction: higher = stronger binding
Target: RNA binding protein fox-1 homolog 2, RRM domain, GST-SBP tag (RBFOX2, Homo sapiens, UniProt O43251-10, residues 100-194)
Notes: natural RNA segment, single round, ends assumed
Target sequence (chain): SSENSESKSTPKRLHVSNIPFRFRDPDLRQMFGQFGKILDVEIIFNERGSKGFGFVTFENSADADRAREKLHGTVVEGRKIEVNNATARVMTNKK
Strand	RBNS enrichment (R)
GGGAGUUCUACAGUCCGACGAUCCUGAUAUUAUGGCAAGUGAUAUCACCUCUCUUCAGCCCCUAGUGCUAUUCUGUGUUGAACACAAUUGAUACUUCAGGUGCUUUUGAUGUGAAAAUCAUGAAAAGAGGAACUGGAAUUCUCGGGUGCCAA	0.29
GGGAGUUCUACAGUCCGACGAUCUAGCAGCAGAACACAUUGAUCUGGCUUACUACUCAACAGGAGGGAAAGUCUGAAAGUUGAUAAGCUAGUUCGACUCCUUUAUAAUGAGAACCUGACAUCAGAGGAGAGUGUGGAAUUCUCGGGUGCCAA	0.603
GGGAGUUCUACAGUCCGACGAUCAUCGCUCCAGGAGUCUACGCUGUCGUGGAAAUUGUGCCCACCCCCAUCUGUGUGUUGUAGCCACUCACUGUUCACAUCGAGUGUCUCUAGUAACUGCCUCUGGACUCGGAUGGAAUUCUCGGGUGCCAA	0.327
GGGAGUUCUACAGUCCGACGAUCCAUGGUGGUGGAUAUUUGGGUCUGUGAAAUCUGAAAAAAACAAAGGUCUAUUCGGAUUGCAUAGGGGUAUAUUAAUAUAUUUUAAACUCACCUAGAUUACACUCAAUUGAUGGAAUUCUCGGGUGCCAA	0.488
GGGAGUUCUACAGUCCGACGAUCGCUGGGAUGACAGGCGCACACCACCACGCCCAGCAAAUUUUUUGUAUUUUUAGUAGAAACGGGAUUUCACCUUGUUAGGCUGGUCUCGAACUCCUGACCUCAGGUGAUCCUGGAAUUCUCGGGUGCCAA	0.322
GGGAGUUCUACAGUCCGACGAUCGUCUAAAGGUUUCUAAGUGUAUCUUGCAAGAGAAUCUCCACUCCAGCAAUCACAGCUCAAAUUGUGGACAAUCAAACCAAAGCCUUCAUUUAAGUUUGGCCACAUUUCAAUGGAAUUCUCGGGUGCCAA	0.564
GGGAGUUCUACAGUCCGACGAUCAGUAGCAGAGGGUCUCGUGCCCAAAAGGCUACCCUUCAAGAUAAGGGAGCCCCGAGGGUCUUUGCAGGAGUUGAUCUUGCUGUGUAGAGCACUAUUGUCCCGGGGUUGACUGGAAUUCUCGGGUGCCAA	0.28
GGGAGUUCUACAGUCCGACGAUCUAUUGGUGAUUAUACGAGACUUCUAAUACAUAAAUGAACGGGUAUUGGUGCCUCUUUAUUUUAAAAAAUUUGAAGAAAAGAGCCACCUCAUAUUCAUAGGGUGUGUAUUUUGGAAUUCUCGGGUGCCAA	0.32
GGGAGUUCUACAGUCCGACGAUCUCUCCAUCUUGCUAGGAAGAACCAACCCACAAAACAACGCCAUCACUGGAAUCUCCCAUCGCUUUAGUGAGCCAUUGUCGUAUGUCUAGUAAACUUUGUACUGAUUCAAAUGGAAUUCUCGGGUGCCAA	0.635
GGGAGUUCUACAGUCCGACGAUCGAAAAAGCCUAGGAGUACUGGCAGUGGAUGAACAAUUUCACCAAACAUCCAGCUUUUUUCCUGCCUCCCUCUGAAUUCUCCAGGAUCUGCUUCACCCUCACCACCACCACUGGAAUUCUCGGGUGCCAA	0.55
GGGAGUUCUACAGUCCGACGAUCCCCUACCGUGGUGGAUUCCCAGCUGGCAGAUGGCCAAGCUCAGGGCCACUGUGAUCUUGGCAGCCCUCCUGUUUAAGGGGCUGCCACCCUCCCUUACAGGGUGGUGUAUAUGGAAUUCUCGGGUGCCAA	0.288
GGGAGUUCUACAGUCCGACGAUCAUUCACCAGAAGGGAAACAUCUCAGGCCAACAUAGGCAAAUGAAAAGGGCUAUUAAAAUAUUUUUACACCUUUGAAAAUUGCAGGCUUGGUACAAAGAGGUCUGUCAUCUUGGAAUUCUCGGGUGCCAA	0.281

Set 3 — technique: protein-binding microarray; molecule type: double-stranded DNA, one strand shown; sample: in vitro; concentration: not given; direction: higher = stronger binding
Target: Hepatocyte nuclear factor 3-beta, forkhead domain (FOXA2, Homo sapiens, UniProt Q9Y261, residues 142-269)
Notes: k-mer, scored over probes, only values ≥0.25
Target sequence (chain): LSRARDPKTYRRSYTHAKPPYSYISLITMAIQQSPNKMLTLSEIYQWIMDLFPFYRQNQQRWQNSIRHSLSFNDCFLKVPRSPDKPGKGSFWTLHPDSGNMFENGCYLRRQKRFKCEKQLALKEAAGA
Strand	E-score
ACGATAGT	0.265
ACTTAGAT	0.317
ATACTCAA	0.258
CCCATATA	0.271
CGTGTTAA	0.283
AACATCGA	0.264
ACTTGTAT	0.308
AAATTGGA	0.269
AATAAACA	0.375
ATAAATAT	0.399
ATATACGA	0.269
ATGGTAAA	0.294
ATTAATAC	0.314
CAACATTA	0.344
CACATGTA	0.389
ATCACGTA	0.26
AATAACAT	0.377
CACACTTA	0.319
AATGTGCA	0.252
ACTATTTG	0.285
ATACAAGC	0.261
GTACATAA	0.338
ATTTTATA	0.272
GTTGTTTA	0.362

Set 4 — technique: RNA Bind-n-Seq; molecule type: RNA; sample: in vitro; concentration: 100 nM; relative to: input RNA pool; direction: higher = stronger binding
Target: RING finger protein unkempt homolog, zinc fingers 1-6, SBP tag (UNK, Homo sapiens, UniProt Q9C0B0, residues 30-357)
Chain of UniProt Q9C0B0 (30-357, looked up): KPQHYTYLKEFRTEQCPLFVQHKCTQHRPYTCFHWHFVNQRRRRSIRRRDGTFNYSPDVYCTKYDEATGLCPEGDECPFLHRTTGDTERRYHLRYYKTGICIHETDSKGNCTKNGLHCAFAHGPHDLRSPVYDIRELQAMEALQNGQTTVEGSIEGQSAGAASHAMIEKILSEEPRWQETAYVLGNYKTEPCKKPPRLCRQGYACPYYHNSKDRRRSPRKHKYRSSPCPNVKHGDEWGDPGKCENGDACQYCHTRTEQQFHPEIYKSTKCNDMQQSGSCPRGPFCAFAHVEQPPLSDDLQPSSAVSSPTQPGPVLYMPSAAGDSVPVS
Notes: RNA with constant flanks, vertebrate orthologous sites, ends assumed
Strand	bound/input enrichment
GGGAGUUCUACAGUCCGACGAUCGUCAUCUGACUGGAUGAAGACAGUUCCGAGUUACAACCAAACAAAUAGCUCCAUGGACUUUAGAAAUUAUAUGAUGAGAGAUGAAACUCUGGAACCACUGCCCAAAAACUGGGAAAUGGCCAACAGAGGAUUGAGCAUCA	1.17 ratio
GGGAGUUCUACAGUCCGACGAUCCCAUUACAGUAAGUAGAGUGGGUUCUCCCCUCCACUUCUCCCAAGAAGAAAAUGCCCAAAUAGAUUGUUUAUGCAUCUGAUUAUAUUGUUCAGUUUUUGUUUCCUAUUAUUUUUACAUAUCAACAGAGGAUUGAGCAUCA	0.892 ratio
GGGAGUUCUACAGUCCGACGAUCAUUUUAAAAGUGUUUAGUUAUAUUUAAUGAUUUUAUUCCUGAGUUCCUAUUUCAUUAAAGUAGCUUCCAUUUCUAUUUAUCGCAGUUAUGAAUAAGUAGAAGGUUUGUGCCAGUAGACACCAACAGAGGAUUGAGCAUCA	0.817 ratio
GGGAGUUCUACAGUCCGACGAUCGCCAUCUGAUUGGAUAAAGACCGUCCCAAGUUACAACCAAACAAACAGUUCCAUGGACUUUAGAAAUUAUAUGAUGCGAGAUGAAAAUCUGGAACCACUGCCCAAAAACUGGGAAAUGGCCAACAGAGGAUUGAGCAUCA	0.719 ratio
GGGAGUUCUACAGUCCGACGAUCAGCAAAUCAAGGAUUGAGGACUGGUUUUACAAAUAUACCAAGUAGAUAUGGAACUAAUAAUAGAAUUGGACAACCAAGACCAUGAUAGACUCUAACUUAUUUUUAUAAGGAAUAUUGACUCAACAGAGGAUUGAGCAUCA	0.366 ratio
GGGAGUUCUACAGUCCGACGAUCGGAGCUUGUGUUUGGCUGCACCUGCGUCAUAAGCUGCUACAACCAGAAUAAAGAGUUUCCGAGCCUGCGUCUCGCUUAGGUGCAUGGGAGUGGGCUUUGCGCACAGGGCUUGGAGCUGACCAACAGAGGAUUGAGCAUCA	0.443 ratio
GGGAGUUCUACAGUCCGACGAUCGUGGCACCCACUGUGAGAGGGAGUAGGGGGAGCCCAGGAUGACCCUCAGCUGUUCCAGUUAAGUAUUUUUUCUUUUUUUAAAAUUACUGUAUUUAUUAUGACGAUGGUGACUCCCCAGUGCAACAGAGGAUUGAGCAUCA	0.577 ratio
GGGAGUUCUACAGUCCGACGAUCAUCUUCAACUUGUUCUAGCUUGUGAUCCUUCAAGUUGGGUCAUGCAUUAGUGCUAGAUACUAGAAAUUGUCAUUUCUCUUUCCACUGAGUAAGAGACAGACAUUAAAAACAAAUGUUCAGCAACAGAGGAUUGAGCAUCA	0.388 ratio
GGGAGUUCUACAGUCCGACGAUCUCACUAGUCCCACUACUCCUGGGUGCGUGACUGCCAUCCACCAGCACUGCAAGGGGUGCAGAGUGUUUUUUUGCUGCCUCAGUCCCCAAUGCCUUCAAGCAGAAGUGGCAGUAGGUUGUUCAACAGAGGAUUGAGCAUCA	0.446 ratio
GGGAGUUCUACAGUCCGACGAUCUACUUUUUUGUUAUUCCUUUAUGUCUUUCUACCUUGUUUUUUCUUUGUUUCUUUUUUUUGGUAGUUGUUGUUACCACACCAUUUUAUGUCUCCUUCACUGAAGGGCUAGAGUUUUAACUUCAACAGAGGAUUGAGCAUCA	1.22 ratio
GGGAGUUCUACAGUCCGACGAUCUUGUGAAGAGUGGGAAAGAUGAGGUUCUUCUCCCUCCAAGUAAAGCUGACGUAACUUCCUUUUAGUUCUGUCUUUGAAAACAAAGAUGCUCUUUUCUCUUAGUUGUGUGACACCACUAUCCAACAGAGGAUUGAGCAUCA	2.26 ratio

Set 5 — technique: protein binding microarray; molecule type: double-stranded DNA, one strand shown; sample: in vitro; concentration: not given; relative to: not given; direction: higher = stronger binding
Target: Histone acetyltransferase KAT6A, both winged helices, GST fusion (KAT6A, Homo sapiens, UniProt Q92794, residues 1-181)
Notes: 8-mer, flanks averaged, mean of 2 arrays, mostly near background
Construct (chain): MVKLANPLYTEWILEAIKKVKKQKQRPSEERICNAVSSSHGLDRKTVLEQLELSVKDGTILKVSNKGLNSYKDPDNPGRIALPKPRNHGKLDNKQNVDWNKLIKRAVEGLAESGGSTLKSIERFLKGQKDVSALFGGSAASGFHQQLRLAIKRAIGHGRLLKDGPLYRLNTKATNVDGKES
Strand	E-score
AAATATAT	-0.0678
GCAGAGTA	-0.0595
GGTGGTAC	-0.11
TACGAGTA	0.0372
AGTGGAGG	-0.141
CACCACTC	-0.132
AGCTCTAT	-0.108
CAGGTTGA	0.00285
CTTCCATC	-0.0967
AAGTTACA	-0.182
AAAACAAG	-0.0375
CAATGAGC	-0.00758
AAACAAGT	-0.0471
GCCAATCC	0.000445
TTGTTAAA	-0.0117
TATGTCGA	0.018
GACTCAGA	-0.107

Repeated from above (set 3):
Strand	E-score
CCCATATA	0.271
ACTATTTG	0.285
ATATACGA	0.269
ATTTTATA	0.272
CGTGTTAA	0.283
GTACATAA	0.338
CAACATTA	0.344
GTTGTTTA	0.362
